Measurements of several laboratories.
Protocols differ between the studies behind these lines. Several values in a cell are separate wells, animals, samples, runs or records.

SMILES	tested on	test	test system	setting	how to read	quantity	value
Nc1nccc(-c2c(-c3ccc(F)cc3)ncn2C2CCC(O)CC2)n1 (centres unmarked)	Trypanosoma brucei			unit not given	baseline: pEC50 T. brucei minus pTC50 HepG2	selectivity	> 1.9
CC(C)NCC(O)c1ccc(O)c(O)c1 (centres unmarked)	β2 adrenergic receptor E122Q (human)	PRESTO-Tango luciferase	HTLA cells	3 nM		β-arrestin2 recruitment	320 RLU and 278 RLU and 291 RLU and 285 RLU and 239 RLU
CCCCOC(=O)Cn1c2ccc(OC)cc2c2nc3ccccc3nc21	Mus musculus	gene silencing, high-content imaging	LDR reporter GFP cells	retest run 2		maximal activity	50%
Cn1cc(-c2ccc(-c3cncc(Cl)c3N3CCC4(CCNC4=O)CC3)cc2)cn1	COLO 205	microarray, item: FAS		concentration not given, 2 h, gene set FasR(CD95)	baseline: untreated cells	fold change in expression	2.03
C[C@@H](Oc1cc(-n2cnc3ccc(OC4CCN(C)CC4)cc32)sc1C(N)=O)c1ccccc1Cl	Trypanosoma brucei			unit not given	baseline: pEC50 T. brucei minus pTC50 HepG2	selectivity	2.2
CC(C)n1ncc2c(C(=O)NCC3(C)CNC3)cc(C3CC3)nc21	Enterovirus D68	cytopathic effect	RD, US/IL/14-18956	15 nM		cell protection	0% and -0.703%
c1coc(-c2n[nH]cc2-c2ccnc3ccccc23)c1	CTK1 (Candida albicans)	kinase binding, MIB/MS competition	Candida albicans lysate	10 µM	baseline: DMSO	log2 fold change	-0.1
COc1cc2nc(=S)n3[nH]c(CCn4nc(C)cc4C)nc3c2cc1OC	Mus musculus	gene silencing, high-content imaging	LDR reporter GFP cells	retest run 2		maximal activity	103%
COc1cnc2cccc(N3CCc4c(cc(Cn5ccnc5C)cc4-c4cn(C)nc4C(F)(F)F)C3=O)c2c1	HLF	cell growth, inhibitor		120 h		EC50	6.14 µM
Oc1ccccc1-c1n[nH]cc1-c1ccnc2ccccc12	AKL1 (Candida albicans)	kinase binding, MIB/MS competition	Candida albicans lysate	10 µM	baseline: DMSO	log2 fold change	0.38
Cc1n[nH]c2ccc(-c3cc(OC[C@@H](N)Cc4ccccc4)cnc3-c3ccoc3)cc12		kinase binding, competitor, MIB/MS competition, item: NIK1	Candida albicans cell lysate	1 µM	baseline: DMSO	log2 fold change	0.254
O=[N+]([O-])c1ccc(-c2ccc(/C=N/Nc3nc(N4CCCCC4)nc(N4CCCCC4)n3)o2)cc1	Mus musculus	gene silencing, high-content imaging	LDR reporter GFP cells	retest run 1		maximal activity	30%
CCn1c(=O)c(-c2cc[nH]n2)cc2c(C)nc(N)nc21	Enterovirus A71	histopathology	EV71-infected suckling mice, spleen	0.25 mg/kg	direction not given	inflammatory infiltration score	1
C[C@H](Oc1ccc(Br)cc1-c1ccon1)C(=O)O		mean CMAP amplitude	human, tibialis anterior muscle	50 mg, SAD		difference from placebo	0.07 mV
NS(=O)(=O)c1ccc(Nc2cc(-c3ccc(O)c(F)c3)n[nH]2)cc1	Trypanosoma brucei			unit not given	baseline: pEC50 T. brucei minus pTC50 HepG2	selectivity	> 1.3
CCn1cc(-c2cc(Cn3ccnc3)cc3c2CCN([C@H](c2cc(OC)ccn2)C2CC2)C3=O)c(C(F)(F)F)n1	22Rv1	cell growth, inhibitor		120 h		EC50	> 30 µM

SMILES	tested on	test	test system	setting	how to read	quantity	value
CCc1cc2c(cc1N1CCC(N3CCOCC3)CC1)C(C)(C)c1[nH]c3cc(C#N)ccc3c1C2=O	Trypanosoma brucei	cell growth				EC50	> 3 µM
CC(=O)N[C@@H](CSC(=O)[C@]1([C@@H](O)C(C)C)NC(=O)[C@H](C)[C@@H]1O)C(=O)O	Mus musculus	gene silencing, high-content imaging	LDR reporter GFP cells	30 h, retest run 2		Emax	72%
COCCN(C)C(=O)c1ccc([C@H]2[C@@H](F)[C@@H](F)C[C@@H](F)[C@H]2F)cc1		liver microsome stability	cynomolgus liver microsomes	1 µM		hepatic clearance	13 mL/min/kg
CC1=C(C(=O)Nc2ccc3[nH]ncc3c2)C(c2ccc3ccccc3c2)CC(=O)N1 (centres unmarked)	Trypanosoma brucei			unit not given	baseline: pEC50 T. brucei minus pTC50 HepG2	selectivity	1.1
CN(C)CCC(=O)Nc1ccc([C@H]2[C@@H](F)[C@@H](F)C[C@@H](F)[C@H]2F)cc1		hepatocyte stability	cryopreserved human hepatocytes	1 µM		hepatic clearance	6.2 mL/min/kg
N#Cc1ccc2c(-c3ccncc3)c(-c3ccc(F)cc3)nn2c1		kinase binding, competitor, MIB/MS competition, item: SCH9	Candida albicans cell lysate	1 µM	baseline: DMSO	log2 fold change	0.179
Nc1cccc2c1C(=O)N(C1CCC(=O)NC1=O)C2=O (centres unmarked)	MM1.S	XTT		2 µM		viability	16% and 31%
CCOc1ccc(NC(=O)c2nc(S(=O)(=O)Cc3ccccc3F)ncc2Cl)cc1	Mus musculus	gene silencing, high-content imaging	LDR reporter GFP cells	retest run 2		maximal activity	78%
Fc1ccc(-c2ncn(C3CCNCC3)c2-c2ccnc(Oc3ccc(Oc4ccccc4)cc3)n2)cc1	Trypanosoma brucei			unit not given	baseline: pEC50 T. brucei minus pTC50 HepG2	selectivity	1
CCN(CC)c1ccc2c(c1)oc(=O)c1c(Cl)cc(=O)oc12	Mus musculus	gene silencing, high-content imaging	LDR reporter GFP cells	retest run 2		maximal activity	113%
CS(=O)(=O)N(Cc1ccccc1)c1ccc(C(=O)N/N=C/c2cccc(Oc3ccccc3)c2)cc1	NAADP receptor	antagonist, fluo-3 fluorescence	Lytechinus pictus, egg homogenate	up to 6 µM, together with: NAADP 30 to 50 nM		NAADP-mediated Ca2+ release	inactive
CCS(=O)(=O)c1ccc(OC)c(Nc2nccc(N(C)c3ccc4c(C)n[nH]c4c3)n2)c1	Trypanosoma brucei			unit not given	baseline: pEC50 T. brucei minus pTC50 HepG2	selectivity	> 1.5
CCOC(=O)c1cc2c(=O)n3ccccc3nc2n(Cc2ccco2)c1=NC(=O)c1ccc(Br)cc1	Mus musculus	gene silencing, high-content imaging	LDR reporter GFP cells	retest run 2		maximal activity	65%
CCn1cc(-c2cc(Cn3ccoc3=N)cc3c2CCN([C@@H](C)c2cc(OC)ccn2)C3=O)c(C(F)(F)F)n1	DLD-1	cell growth, inhibitor		120 h		EC50	3.3 µM
CS(=O)(=O)CCNCc1ccc(-c2ccc3ncnc(Nc4ccc(OCc5cccc(F)c5)c(C(F)(F)F)c4)c3c2)o1	Trypanosoma brucei			unit not given	baseline: pEC50 T. brucei minus pTC50 HepG2	selectivity	0.9
N#CC1=C(N)n2c(s/c(=C\c3cccs3)c2=O)=C(C#N)C1c1cccs1 (centres unmarked)	Mus musculus	gene silencing, high-content imaging	LDR reporter GFP cells	retest run 2		maximal activity	24%

Excerpt of the above:
SMILES	tested on	test	test system	setting	how to read	quantity	value
Nc1nccc(-c2c(-c3ccc(F)cc3)ncn2C2CCC(O)CC2)n1 (centres unmarked)	Trypanosoma brucei			unit not given	baseline: pEC50 T. brucei minus pTC50 HepG2	selectivity	> 1.9
CS(=O)(=O)N(Cc1ccccc1)c1ccc(C(=O)N/N=C/c2cccc(Oc3ccccc3)c2)cc1	NAADP receptor	antagonist, fluo-3 fluorescence	Lytechinus pictus, egg homogenate	up to 6 µM, together with: NAADP 30 to 50 nM		NAADP-mediated Ca2+ release	inactive
COCCN(C)C(=O)c1ccc([C@H]2[C@@H](F)[C@@H](F)C[C@@H](F)[C@H]2F)cc1		liver microsome stability	cynomolgus liver microsomes	1 µM		hepatic clearance	13 mL/min/kg
CC(C)NCC(O)c1ccc(O)c(O)c1 (centres unmarked)	β2 adrenergic receptor E122Q (human)	PRESTO-Tango luciferase	HTLA cells	3 nM		β-arrestin2 recruitment	320 RLU and 278 RLU and 291 RLU and 285 RLU and 239 RLU
